Assay results of several laboratories.
Each line is one published result; not all experiments were run side by side.
Target: MAP kinase-activated protein kinase 5 (MAPKAPK5, Homo sapiens, UniProt Q8IW41)
Residues used in one study (Q8IW41 1-473): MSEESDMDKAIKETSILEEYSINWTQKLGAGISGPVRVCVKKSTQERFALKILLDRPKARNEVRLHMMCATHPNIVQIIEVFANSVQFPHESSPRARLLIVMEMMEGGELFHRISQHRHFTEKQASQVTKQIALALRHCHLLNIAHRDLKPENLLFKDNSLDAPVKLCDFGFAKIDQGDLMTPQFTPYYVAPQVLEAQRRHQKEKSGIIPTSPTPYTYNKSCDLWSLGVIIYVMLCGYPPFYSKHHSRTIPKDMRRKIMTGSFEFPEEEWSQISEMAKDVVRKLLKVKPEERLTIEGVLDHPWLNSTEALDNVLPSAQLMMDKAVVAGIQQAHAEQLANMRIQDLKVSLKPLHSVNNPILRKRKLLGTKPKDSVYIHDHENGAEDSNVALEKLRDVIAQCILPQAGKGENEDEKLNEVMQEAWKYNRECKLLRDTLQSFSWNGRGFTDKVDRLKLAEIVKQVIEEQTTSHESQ

Structure (SMILES)	assay	conditions	how to read	endpoint	value
Cc1nc2c(F)cc(-c3nc(Nc4ccc(CNC(=O)CCCCCCC(=O)NO)cc4)ncc3F)cc2n1C(C)C	enzyme activity, inhibitor	1 µM	–	inhibition	17%
CN1CCN(Cc2ccc(-c3ccc(CO[C@H]4CCC[C@@H]4NC(=O)c4cc(-c5cnn(C)c5)cnc4N)cc3)cc2)CC1	enzyme activity, inhibitor	0.1 µM	–	inhibition	1%
CNC(=O)C[C@H](Cc1ccc(C#N)cc1)NC(=O)c1cc(-c2ccc(CN[C@H](C)c3ccc(C)cc3)o2)ccc1Cl	enzyme activity, inhibitor	1 µM	–	activity vs control	84%
COc1cc(Nc2nccc(-c3cnn4nc(OC)ccc34)n2)cc(C(F)(F)F)c1	binding, competition with immobilised ligand	1 µM	–	remaining binding	78%
Cc1cccc(-c2ccc3nc(NC(=O)C4CCOCC4)nn3c2)c1	enzyme activity, Dundee kinase panel	10 µM	–	remaining activity	60%
NC(=O)[C@@H](O)C[C@H]1CCc2sc3ncnc(O[C@H]4CC[C@H](N5CCOCC5)CC4)c3c21	enzyme activity, inhibitor	10 µM	–	inhibition	2%
COc1c(OCCCN2CCOCC2)ccc2c1N=C(NC(=O)c1cnc(N)nc1)N1CCN=C21	kinase activity, inhibitor	1 µM	baseline: untreated control	remaining activity	129%
Nc1nc(Nc2ccccc2)sc1C(=O)c1ccccc1	enzyme activity, inhibitor	10 µM	–	remaining activity	72%
C=CC(=O)Nc1cccc(-c2cnc3[nH]cc(C(=O)NC(C)(C)C)c3n2)c1	enzyme activity, inhibitor	0.1 µM	–	inhibition	5%
CCn1cc(C(=O)O)c(=O)c2c(N)c(F)c(NC3CCCCC3)cc21	kinase activity	0.1 µM, with: ATP at Km	–	inhibition	-15.8%
Nc1ncc2c(n1)-c1c([nH]c3ccc(C4=CCOCC4)cc13)CCC2	binding, competition with immobilised ligand	1 µM	–	remaining binding	98%
Cc1ccc(-c2c(/C=C(\C#N)C(=O)NC(C)C)n(CCCO)c3ncnc(N)c23)cc1	cell-free assay, competition with immobilised ligand	1 µM	–	remaining binding	100%
Cc1ccc(C)c(-c2ccc3nc(NC(=O)C4CCCCC4)nn3c2)c1	enzyme activity, Dundee kinase panel	10 µM	–	remaining activity	63%
C=CC(=O)N1CCCC(n2c(=O)c3ncccc3n(Cc3ccc(Oc4ccccc4)cc3)c2=O)C1 (stereo not shown)	cell-free assay, competition with immobilised ligand	1 µM	–	remaining binding	78%
CN1CC[C@@H](COc2cnc(C#N)cc2-c2ccn3nc(NC(=O)C4CC4)cc3c2)C1	enzyme activity, inhibitor	1 µM	–	inhibition	0%
CNC(=O)C1CCN(c2cc(C)c(F)cc2NC(=O)c2ccc(-c3cc(O)ccc3C)c(C)c2)CC1	binding, competition with immobilised ligand	1 µM	–	remaining binding	60%
Cc1cccc(O[C@H]2CCC[C@@H](C(C)CNCc3ccncc3)C2)c1 (relative stereo)	enzyme activity, inhibitor	10 µM	–	inhibition	2%
CCN1CCN(Cc2ccc(C(=O)Nc3ccc(C)c(NCc4cnc5[nH]ccc5c4OC)c3)cc2C(F)(F)F)CC1	binding, competition with immobilised ligand	1 µM	–	remaining binding	100%
CNC1C[S+]2CC[S+]3CC[S+](C1)[Ru-4]321([N]=C=S)[n]2c3ccc(OC)cc3c3c4c(c5cc(F)c[n+]1c5c32)C(=O)NC4=O (stereo not shown)	KinomeScan	0.1 µM	baseline: untreated	remaining binding	100%

A few entries again:
Structure (SMILES)	assay	conditions	how to read	endpoint	value
Nc1nc(Nc2ccccc2)sc1C(=O)c1ccccc1	enzyme activity, inhibitor	10 µM	–	remaining activity	72%
Cc1cccc(-c2ccc3nc(NC(=O)C4CCOCC4)nn3c2)c1	enzyme activity, Dundee kinase panel	10 µM	–	remaining activity	60%
